Measurements of several laboratories.
Parts stem from different laboratories: compare values within a part only. Changes are numbered by the printed parent chain.
Sequence of UniProt P41743 (whole entry, looked up): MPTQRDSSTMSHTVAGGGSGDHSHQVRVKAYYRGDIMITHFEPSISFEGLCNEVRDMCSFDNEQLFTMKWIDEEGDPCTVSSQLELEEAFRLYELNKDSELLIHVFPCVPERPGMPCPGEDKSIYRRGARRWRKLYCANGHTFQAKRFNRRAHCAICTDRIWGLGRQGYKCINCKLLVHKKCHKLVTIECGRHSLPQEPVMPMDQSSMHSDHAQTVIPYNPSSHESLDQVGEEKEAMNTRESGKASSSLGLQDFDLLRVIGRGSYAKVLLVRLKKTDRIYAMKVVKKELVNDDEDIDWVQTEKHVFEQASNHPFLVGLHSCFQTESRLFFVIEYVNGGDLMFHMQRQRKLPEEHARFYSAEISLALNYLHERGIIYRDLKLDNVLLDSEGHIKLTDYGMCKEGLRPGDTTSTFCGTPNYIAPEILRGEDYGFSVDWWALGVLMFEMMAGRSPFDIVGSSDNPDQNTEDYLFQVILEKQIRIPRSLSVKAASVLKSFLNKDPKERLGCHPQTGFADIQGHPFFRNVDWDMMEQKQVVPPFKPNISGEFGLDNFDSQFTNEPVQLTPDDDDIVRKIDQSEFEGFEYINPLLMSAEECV
Sequence of UniProt Q5S007 (whole entry, looked up): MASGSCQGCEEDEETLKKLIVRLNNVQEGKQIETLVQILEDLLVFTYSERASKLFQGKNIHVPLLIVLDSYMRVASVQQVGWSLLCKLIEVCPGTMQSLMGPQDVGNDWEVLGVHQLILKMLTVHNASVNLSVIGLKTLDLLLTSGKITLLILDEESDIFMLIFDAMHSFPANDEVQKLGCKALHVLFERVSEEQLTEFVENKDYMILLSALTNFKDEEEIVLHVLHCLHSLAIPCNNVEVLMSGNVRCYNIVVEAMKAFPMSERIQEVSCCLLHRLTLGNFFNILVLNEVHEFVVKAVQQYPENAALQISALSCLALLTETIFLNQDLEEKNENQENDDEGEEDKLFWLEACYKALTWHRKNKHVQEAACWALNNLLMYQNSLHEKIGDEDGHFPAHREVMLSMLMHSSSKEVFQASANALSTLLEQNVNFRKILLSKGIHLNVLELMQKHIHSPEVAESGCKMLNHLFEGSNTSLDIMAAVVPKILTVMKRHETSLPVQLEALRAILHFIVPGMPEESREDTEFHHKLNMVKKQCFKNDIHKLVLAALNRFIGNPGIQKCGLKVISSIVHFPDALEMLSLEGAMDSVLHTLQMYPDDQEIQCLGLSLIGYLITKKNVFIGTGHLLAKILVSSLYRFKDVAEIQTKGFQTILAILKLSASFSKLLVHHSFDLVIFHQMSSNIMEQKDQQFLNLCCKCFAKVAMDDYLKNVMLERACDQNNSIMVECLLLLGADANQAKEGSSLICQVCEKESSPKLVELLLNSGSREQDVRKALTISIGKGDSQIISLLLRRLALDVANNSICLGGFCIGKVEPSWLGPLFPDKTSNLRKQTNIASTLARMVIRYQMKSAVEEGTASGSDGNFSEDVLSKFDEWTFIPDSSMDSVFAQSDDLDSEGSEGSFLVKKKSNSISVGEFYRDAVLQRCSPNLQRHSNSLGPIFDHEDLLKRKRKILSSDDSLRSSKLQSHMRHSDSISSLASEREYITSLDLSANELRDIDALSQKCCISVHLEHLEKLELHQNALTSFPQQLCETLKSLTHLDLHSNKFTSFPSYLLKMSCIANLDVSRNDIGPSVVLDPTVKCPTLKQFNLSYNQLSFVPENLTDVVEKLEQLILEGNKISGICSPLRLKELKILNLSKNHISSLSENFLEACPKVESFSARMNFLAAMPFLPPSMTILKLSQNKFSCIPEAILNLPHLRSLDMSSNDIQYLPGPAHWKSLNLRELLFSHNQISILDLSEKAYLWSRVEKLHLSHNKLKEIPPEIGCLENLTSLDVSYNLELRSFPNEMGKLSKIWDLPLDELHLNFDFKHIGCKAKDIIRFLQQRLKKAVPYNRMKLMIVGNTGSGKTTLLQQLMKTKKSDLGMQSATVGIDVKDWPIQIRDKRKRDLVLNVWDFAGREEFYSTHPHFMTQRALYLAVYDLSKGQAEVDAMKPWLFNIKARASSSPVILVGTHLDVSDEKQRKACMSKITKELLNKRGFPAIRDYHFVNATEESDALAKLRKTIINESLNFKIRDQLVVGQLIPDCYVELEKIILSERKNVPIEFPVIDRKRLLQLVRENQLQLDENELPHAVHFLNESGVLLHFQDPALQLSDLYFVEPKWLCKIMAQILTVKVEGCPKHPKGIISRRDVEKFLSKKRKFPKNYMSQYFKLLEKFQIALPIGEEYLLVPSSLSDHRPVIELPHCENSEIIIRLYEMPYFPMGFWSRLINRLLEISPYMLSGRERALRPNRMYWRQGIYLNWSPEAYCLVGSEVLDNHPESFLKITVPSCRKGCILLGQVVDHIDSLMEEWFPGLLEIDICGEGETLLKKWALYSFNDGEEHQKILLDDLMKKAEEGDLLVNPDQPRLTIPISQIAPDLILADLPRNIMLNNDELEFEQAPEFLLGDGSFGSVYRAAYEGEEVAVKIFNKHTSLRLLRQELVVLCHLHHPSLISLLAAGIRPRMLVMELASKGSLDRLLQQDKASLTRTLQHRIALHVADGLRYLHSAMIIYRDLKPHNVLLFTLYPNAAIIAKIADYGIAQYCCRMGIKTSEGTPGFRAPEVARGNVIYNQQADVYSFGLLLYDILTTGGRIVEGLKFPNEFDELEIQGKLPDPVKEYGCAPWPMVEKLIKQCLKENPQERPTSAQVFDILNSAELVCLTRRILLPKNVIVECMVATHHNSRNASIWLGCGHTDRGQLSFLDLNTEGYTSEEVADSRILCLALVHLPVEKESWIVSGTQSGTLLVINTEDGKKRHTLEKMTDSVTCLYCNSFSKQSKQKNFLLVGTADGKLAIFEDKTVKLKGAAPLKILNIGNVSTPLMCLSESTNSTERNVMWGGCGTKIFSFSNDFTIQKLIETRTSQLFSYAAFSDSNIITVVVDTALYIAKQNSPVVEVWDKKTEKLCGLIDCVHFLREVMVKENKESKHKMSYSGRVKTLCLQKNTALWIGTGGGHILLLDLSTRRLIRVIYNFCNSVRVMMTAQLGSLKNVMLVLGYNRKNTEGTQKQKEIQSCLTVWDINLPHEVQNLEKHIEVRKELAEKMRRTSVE
Sequence of UniProt Q16539 (whole entry, looked up): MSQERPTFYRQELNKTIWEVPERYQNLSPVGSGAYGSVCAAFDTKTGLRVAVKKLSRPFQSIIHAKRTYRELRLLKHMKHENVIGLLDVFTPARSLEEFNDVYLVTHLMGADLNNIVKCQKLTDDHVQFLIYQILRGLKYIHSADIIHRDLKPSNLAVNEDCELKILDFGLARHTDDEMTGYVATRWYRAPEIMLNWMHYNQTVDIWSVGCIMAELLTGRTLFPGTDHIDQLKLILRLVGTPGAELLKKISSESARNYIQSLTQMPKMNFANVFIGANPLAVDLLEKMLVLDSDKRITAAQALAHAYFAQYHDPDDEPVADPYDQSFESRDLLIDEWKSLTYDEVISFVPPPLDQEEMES
Sequence of UniProt Q9NYY3 (whole entry, looked up): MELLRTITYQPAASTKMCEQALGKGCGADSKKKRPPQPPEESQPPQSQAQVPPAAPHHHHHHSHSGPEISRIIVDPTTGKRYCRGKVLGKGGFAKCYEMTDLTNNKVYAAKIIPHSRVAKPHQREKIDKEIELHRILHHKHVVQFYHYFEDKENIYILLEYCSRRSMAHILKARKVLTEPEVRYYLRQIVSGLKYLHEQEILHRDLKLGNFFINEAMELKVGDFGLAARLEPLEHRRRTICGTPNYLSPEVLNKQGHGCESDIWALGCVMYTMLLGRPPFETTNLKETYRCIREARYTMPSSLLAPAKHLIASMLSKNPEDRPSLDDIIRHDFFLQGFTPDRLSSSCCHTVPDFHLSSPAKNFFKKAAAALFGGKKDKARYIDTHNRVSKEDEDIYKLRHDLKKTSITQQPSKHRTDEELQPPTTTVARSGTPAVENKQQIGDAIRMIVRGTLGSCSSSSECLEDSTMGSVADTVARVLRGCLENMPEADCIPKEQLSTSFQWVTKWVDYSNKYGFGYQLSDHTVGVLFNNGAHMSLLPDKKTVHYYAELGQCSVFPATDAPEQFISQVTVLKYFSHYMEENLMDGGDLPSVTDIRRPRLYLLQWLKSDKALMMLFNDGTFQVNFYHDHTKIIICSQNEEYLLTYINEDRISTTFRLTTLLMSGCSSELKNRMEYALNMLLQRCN

Block 1 — method: protein-binding microarray; form: double-stranded DNA, one strand shown; matrix: in vitro; tested at: 2200 nM top; notes: 60-bp whole probe; together with: salmon DNA 0.4 mg/ml; reference: random background probes; direction: higher = stronger binding; constant ends, left off below: GCCTAGCAC … GTCTTGATTCGCTTGACGCTGCTG
Target: Interferon regulatory factor 7, full length, phosphomimetic (IRF7, Homo sapiens, UniProt Q92985, residues 1-503, S471D/S472D/S475D/S476D/S477D/S483D/S484D/S487D)
Construct (chain): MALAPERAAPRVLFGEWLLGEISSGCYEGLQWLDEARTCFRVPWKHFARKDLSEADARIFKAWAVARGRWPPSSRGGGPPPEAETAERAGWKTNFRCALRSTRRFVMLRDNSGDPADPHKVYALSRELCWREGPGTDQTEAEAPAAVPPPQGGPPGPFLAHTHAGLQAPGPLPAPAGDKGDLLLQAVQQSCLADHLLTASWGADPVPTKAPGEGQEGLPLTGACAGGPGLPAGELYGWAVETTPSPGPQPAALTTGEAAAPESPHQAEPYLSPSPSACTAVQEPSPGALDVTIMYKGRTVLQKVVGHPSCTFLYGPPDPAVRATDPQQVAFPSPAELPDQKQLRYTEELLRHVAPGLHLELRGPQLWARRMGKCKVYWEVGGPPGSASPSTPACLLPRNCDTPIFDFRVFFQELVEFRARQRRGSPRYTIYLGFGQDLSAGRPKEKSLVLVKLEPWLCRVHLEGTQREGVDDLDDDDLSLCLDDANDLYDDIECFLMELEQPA
| Sequence | fitted relative affinity |
| --- | --- |
| AAGGCTTTGCTTCCTGCAGAGTGCTAG | -0.0411 z-score |
| TCAGCTTTCCTTCATGCACTGTGCTAG | 1.72 z-score |
| TTAGGTATCCTACTGGTTTAGTGCTAG | 0.392 z-score |
| AAGTGTATATACTATATGCATGTGCTA | 0.0291 z-score |
| GACGGACTGGACTCTGGGGACGTGCTA | -0.853 z-score |
| TTAGGTATCCTAGTGCTTTAGTGCTAG | 0.158 z-score |
| TGGGATTTTTAGTTAGAAAAGTGCTAG | -0.479 z-score |
| GACGGACCGGGTCTCGGGACGTGCTAG | -0.752 z-score |

Block 2 — Variant: E147V; method: DHFR PCA, deep sequencing; matrix: yeast; reference: wild-type fitted maximum; direction: higher = stronger binding
Target: ABI1, truncated, D143A, DHFR fusion (Arabidopsis thaliana)
Notes: methotrexate growth selection, single substitutions
Parent: PYL1, truncated, DHFR fusion (Arabidopsis thaliana); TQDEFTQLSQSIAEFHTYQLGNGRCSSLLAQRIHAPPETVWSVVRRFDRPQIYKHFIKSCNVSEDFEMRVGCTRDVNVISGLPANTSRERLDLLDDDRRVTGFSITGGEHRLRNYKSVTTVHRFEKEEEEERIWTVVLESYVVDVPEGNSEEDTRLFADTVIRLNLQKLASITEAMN
| together with | relative binding score [%] |
| --- | --- |
| (+)-ABA 710 µM | 97.2 |
| (+)-ABA 0.39 µM | 16.8 |
| (+)-ABA 0.11 µM | 16.6 |
| (+)-ABA 200 µM | 95.4 |
| (+)-ABA 17 µM | 78.1 |
| (+)-ABA 1.4 µM | 35.2 |

Block 3 — observed: enzyme activity; action: inhibitor; tested at: 0.5 µM; reference: control
SMILES: COc1cc2c(N3CCN(C(=O)Nc4ccc(OC(C)C)cc4)CC3)ncnc2cc1OCCCN1CCCCC1
| target | remaining activity [%] |
| --- | --- |
| PRKCI (Homo sapiens, UniProt P41743) | 96.2 |
| LRRK2 (Homo sapiens, UniProt Q5S007) | 123 |
| PLK2 (Homo sapiens, UniProt Q9NYY3) | 99.8 |

Single results of other studies
FKH2 DNA-binding domain: Fork head protein homolog 2, DNA-binding domain (FKH2, Saccharomyces cerevisiae, UniProt P41813, residues 280-520)
Sequence of UniProt P41813 (280-520, looked up): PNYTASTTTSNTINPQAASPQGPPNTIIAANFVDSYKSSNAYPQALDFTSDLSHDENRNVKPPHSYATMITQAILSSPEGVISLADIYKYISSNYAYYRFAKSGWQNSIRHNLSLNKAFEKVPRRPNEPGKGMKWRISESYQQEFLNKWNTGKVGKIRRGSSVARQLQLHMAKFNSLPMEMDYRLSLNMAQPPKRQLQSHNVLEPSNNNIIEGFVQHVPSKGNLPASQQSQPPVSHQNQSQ
| Molecule | target | assay | test system | conditions | how to read | quantity | value |
| --- | --- | --- | --- | --- | --- | --- | --- |
| GACAACA | FKH2 DNA-binding domain | SELEX-seq | double-stranded DNA, one strand shown, in vitro | not given, 7-bp core, flanks averaged | reference: best-binding core, lower = stronger binding | relative binding free energy | 0.911 ddG/RT |
| COc1ccc2c(O[C@@H]3C[C@H]4C(=O)N[C@]5(C(=O)O)CC5/C=C\CCCCC[C@H](NC(=O)OC5CCCC5)C(=O)N4C3)cc(-c3csc(NC(=O)C(C)C)n3)nc2c1C (some centres unmarked) | MAPK14 (Homo sapiens, UniProt Q16539) | cell-free assay, competition with immobilised ligand | – | 1 µM | – | remaining binding | 100% |
| CAATACA | FKH2 DNA-binding domain | SELEX-seq | double-stranded DNA, one strand shown, in vitro | not given, 7-bp core, flanks averaged | reference: best-binding core, lower = stronger binding | relative binding free energy | 2.01 ddG/RT |

Repeated from above (single results of other studies):
| Molecule | target | assay | test system | conditions | how to read | quantity | value |
| --- | --- | --- | --- | --- | --- | --- | --- |
| GACAACA | FKH2 DNA-binding domain | SELEX-seq | double-stranded DNA, one strand shown, in vitro | not given, 7-bp core, flanks averaged | reference: best-binding core, lower = stronger binding | relative binding free energy | 0.911 ddG/RT |
| COc1ccc2c(O[C@@H]3C[C@H]4C(=O)N[C@]5(C(=O)O)CC5/C=C\CCCCC[C@H](NC(=O)OC5CCCC5)C(=O)N4C3)cc(-c3csc(NC(=O)C(C)C)n3)nc2c1C (some centres unmarked) | MAPK14 (Homo sapiens, UniProt Q16539) | cell-free assay, competition with immobilised ligand | – | 1 µM | – | remaining binding | 100% |
